Experimental data of several laboratories.
A part holds a random share of what one study measured. “And” joins repeats or separate records; there may be more than shown.

Set 1
SMILES: c1ccc(Oc2ccc(Nc3c4c(nc5ccccc35)CCC4)cc2)cc1
Organism: Leishmania donovani
Read-out: parasite growth
Strain: DD8 amphotericin B-resistant
medium | concentration | inhibition
intracellular amastigotes | 8 µM | 100% and 94% and 99%
promastigotes | 0.0033 µM | 2% and 1% and 5%
intracellular amastigotes | 0.02 µM | 0% and 5% and 2%
intracellular amastigotes | 2 µM | 81% and 83% and 84%
promastigotes | 0.16 µM | 2% and 8% and 1% and 4% and 7%

Set 2
Cell line: HEK-293T/ACE2
Concentration: concentration not given
Time: 16 (unit not given)
Baseline: vehicle
Compound | viability [%]
Nc1c(CC(=O)O)cccc1C(=O)c1ccc(Br)cc1 | 100
O=C1NC(=O)C(c2ccccc2)(c2ccccc2)N1 | 100
CC1=C(CC(=O)O)c2cc(F)ccc2/C1=C\c1ccc([S+](C)[O-])cc1 (stereo not shown) | 100
CC(CN1c2ccccc2Sc2ccccc21)N(C)C (stereo not shown) | 98.2
OC(CNCC(O)C1CCc2cc(F)ccc2O1)C1CCc2cc(F)ccc2O1 (stereo not shown) | 102
CC1=CC(=O)c2ccccc2C1=O | 95.6
C[N+](C)(C)CCOC(N)=O | 101
CCOC(=O)CC(SP(=S)(OC)OC)C(=O)OCC (stereo not shown) | 98.1
CN(C)CCC(c1ccccc1)c1ccccn1 (stereo not shown) | 99.1
C#Cc1cccc(Nc2ncnc3cc(OCCOC)c(OCCOC)cc23)c1 | 100
CC(=O)NCCCS(=O)(=O)O | 99.4
COc1cc2nc(N(C)CCCNC(=O)C3CCCO3)nc(N)c2cc1OC (stereo not shown) | 98.1

Set 3
Compound: CNC(=O)c1ccc(-c2cnn3ccc(C(=O)N(C)c4ccc(Cl)c(C(=O)OC)c4)cc23)cc1
Organism: Cryptosporidium parvum
Technique: time-kill
Cell line: HCT-8
Strain: nanoluciferase-expressing
Direction: higher = more parasites
concentration | time | parasite luminescence
0.00305 µM | 4 h | 72000 RLU and 96100 RLU
0.02743 µM | 8 h | 80600 RLU and 96400 RLU
2.222 µM | 48 h | 23900 RLU and 26800 RLU
0.00914 µM | 48 h | 36000 RLU and 36600 RLU
0.2469 µM | 8 h | 115000 RLU and 95800 RLU
0.00305 µM | 72 h | 161000 RLU and 193000 RLU
0.7407 µM | 8 h | 105000 RLU and 106000 RLU
2.222 µM | 72 h | 19800 RLU and 20800 RLU
0.00914 µM | 8 h | 82300 RLU and 71600 RLU
20 µM | 72 h | 21600 RLU and 17700 RLU
0.7407 µM | 24 h | 111000 RLU and 106000 RLU
0.7407 µM | 4 h | 86900 RLU and 87600 RLU

Other studies, line by line
Organism: Sarcocystis neurona
Read-out: parasite growth
Concentration: 10 µM
Notes: second screen
Structure (SMILES) | inhibition
Cl.Oc1cc2c(cc1O)[C@H]1c3ccccc3CN[C@@H]1CC2 | -68.2%
CCC(COC(=O)c1cc(OC)c(OC)c(OC)c1)(c1ccccc1)N(C)C.O=C(O)/C=C\C(=O)O (stereo not shown) | -49.9%

Repeated from above (set 2):
Compound | viability [%]
CC1=CC(=O)c2ccccc2C1=O | 95.6
O=C1NC(=O)C(c2ccccc2)(c2ccccc2)N1 | 100
